# Measured values from different studies.
# Each line is one published result; not all experiments were run side by side. ± gives the spread as reported.
# Polyprotein P1234 nsP2 protease domain: Polyprotein P1234, nsP2 protease domain (Chikungunya virus, UniProt Q5XXP4)
# Sequence of UniProt Q5XXP4 (whole entry, looked up): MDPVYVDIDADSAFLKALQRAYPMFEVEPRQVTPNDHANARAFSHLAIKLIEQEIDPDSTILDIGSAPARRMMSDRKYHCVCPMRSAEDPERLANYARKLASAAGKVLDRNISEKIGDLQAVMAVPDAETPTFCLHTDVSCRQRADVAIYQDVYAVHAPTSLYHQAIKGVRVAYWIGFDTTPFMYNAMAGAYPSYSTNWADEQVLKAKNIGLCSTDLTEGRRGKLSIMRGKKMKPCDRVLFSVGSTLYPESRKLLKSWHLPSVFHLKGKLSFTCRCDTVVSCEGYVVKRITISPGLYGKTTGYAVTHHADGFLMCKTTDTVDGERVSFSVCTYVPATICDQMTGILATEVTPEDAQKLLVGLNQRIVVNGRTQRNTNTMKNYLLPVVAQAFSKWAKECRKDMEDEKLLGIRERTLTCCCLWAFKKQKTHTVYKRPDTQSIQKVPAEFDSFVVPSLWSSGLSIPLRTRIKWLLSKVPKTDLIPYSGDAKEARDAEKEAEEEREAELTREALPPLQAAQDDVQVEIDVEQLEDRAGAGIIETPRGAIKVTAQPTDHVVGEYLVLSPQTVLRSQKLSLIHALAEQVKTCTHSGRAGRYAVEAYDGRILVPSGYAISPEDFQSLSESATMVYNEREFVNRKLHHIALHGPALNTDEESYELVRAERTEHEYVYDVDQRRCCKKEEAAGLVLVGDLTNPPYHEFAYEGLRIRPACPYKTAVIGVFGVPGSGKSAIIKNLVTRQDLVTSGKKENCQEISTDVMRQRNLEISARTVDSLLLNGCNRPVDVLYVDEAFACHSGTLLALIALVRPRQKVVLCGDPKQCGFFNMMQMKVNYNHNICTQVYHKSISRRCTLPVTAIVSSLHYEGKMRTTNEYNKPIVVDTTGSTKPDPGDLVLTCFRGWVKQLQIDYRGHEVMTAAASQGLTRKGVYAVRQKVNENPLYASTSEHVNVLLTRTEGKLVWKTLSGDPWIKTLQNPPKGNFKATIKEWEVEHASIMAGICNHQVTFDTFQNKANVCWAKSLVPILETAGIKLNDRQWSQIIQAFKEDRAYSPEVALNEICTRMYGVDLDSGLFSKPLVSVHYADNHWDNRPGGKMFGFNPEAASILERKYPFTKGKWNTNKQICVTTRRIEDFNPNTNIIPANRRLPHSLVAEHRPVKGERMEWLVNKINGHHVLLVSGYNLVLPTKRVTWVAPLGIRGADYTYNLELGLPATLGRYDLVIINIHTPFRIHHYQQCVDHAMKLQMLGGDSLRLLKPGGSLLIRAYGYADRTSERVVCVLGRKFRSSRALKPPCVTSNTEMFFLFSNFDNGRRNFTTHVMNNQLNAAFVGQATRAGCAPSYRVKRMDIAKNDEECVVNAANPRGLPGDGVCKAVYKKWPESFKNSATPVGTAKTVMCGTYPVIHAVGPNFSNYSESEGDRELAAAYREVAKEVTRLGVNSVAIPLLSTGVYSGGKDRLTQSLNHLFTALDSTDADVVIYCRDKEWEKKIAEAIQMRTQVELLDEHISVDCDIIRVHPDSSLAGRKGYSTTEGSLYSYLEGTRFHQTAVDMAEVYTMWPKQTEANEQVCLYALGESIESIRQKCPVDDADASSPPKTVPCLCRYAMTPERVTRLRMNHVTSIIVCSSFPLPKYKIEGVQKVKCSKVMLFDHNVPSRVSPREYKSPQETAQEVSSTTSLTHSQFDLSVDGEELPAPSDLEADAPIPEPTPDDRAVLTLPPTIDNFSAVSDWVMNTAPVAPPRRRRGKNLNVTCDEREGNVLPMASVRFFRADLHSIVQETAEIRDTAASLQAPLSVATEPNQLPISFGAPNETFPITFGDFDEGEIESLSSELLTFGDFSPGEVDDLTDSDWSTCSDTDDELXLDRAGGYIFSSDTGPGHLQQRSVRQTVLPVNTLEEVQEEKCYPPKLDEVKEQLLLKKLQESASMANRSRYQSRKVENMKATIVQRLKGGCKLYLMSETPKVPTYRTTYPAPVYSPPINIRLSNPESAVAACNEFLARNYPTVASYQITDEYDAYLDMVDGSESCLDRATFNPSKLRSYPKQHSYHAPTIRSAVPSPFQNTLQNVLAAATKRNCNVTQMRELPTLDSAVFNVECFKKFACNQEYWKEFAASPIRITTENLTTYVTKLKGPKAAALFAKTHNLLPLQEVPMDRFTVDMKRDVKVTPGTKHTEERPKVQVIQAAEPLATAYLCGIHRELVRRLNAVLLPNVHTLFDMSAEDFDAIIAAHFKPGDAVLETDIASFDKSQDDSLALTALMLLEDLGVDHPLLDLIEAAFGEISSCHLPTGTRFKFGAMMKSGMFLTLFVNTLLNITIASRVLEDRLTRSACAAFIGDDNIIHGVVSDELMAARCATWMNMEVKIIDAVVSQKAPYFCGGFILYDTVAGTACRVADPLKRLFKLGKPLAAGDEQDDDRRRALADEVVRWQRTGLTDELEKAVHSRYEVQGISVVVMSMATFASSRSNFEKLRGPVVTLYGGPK
# HLA class I histocompatibility antigen, B alpha chain allele B*44:03: HLA class I histocompatibility antigen, B alpha chain, allele B*44:03 (Homo sapiens, UniProt P01889)
# nanI: Sialidase (nanI, Clostridium perfringens, UniProt A0A0H2YQR1)
# HLA class I histocompatibility antigen, A alpha chain allele A*01:01: HLA class I histocompatibility antigen, A alpha chain, allele A*01:01 (Homo sapiens, UniProt P04439)
# rep nsp13 helicase: Replicase polyprotein 1ab, nsp13 helicase (rep, Severe acute respiratory syndrome coronavirus 2, UniProt P0DTD1)
# HLA class I histocompatibility antigen, B alpha chain: HLA class I histocompatibility antigen, B alpha chain (Homo sapiens, UniProt P01889)
# Sequence of UniProt Q81Y92 (whole entry, looked up): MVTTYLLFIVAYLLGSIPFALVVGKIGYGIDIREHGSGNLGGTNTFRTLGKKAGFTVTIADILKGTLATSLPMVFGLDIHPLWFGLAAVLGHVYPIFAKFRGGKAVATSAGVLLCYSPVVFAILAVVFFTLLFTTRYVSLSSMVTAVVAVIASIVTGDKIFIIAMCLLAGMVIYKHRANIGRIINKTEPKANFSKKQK
# Sequence of UniProt P10635 (whole entry, looked up): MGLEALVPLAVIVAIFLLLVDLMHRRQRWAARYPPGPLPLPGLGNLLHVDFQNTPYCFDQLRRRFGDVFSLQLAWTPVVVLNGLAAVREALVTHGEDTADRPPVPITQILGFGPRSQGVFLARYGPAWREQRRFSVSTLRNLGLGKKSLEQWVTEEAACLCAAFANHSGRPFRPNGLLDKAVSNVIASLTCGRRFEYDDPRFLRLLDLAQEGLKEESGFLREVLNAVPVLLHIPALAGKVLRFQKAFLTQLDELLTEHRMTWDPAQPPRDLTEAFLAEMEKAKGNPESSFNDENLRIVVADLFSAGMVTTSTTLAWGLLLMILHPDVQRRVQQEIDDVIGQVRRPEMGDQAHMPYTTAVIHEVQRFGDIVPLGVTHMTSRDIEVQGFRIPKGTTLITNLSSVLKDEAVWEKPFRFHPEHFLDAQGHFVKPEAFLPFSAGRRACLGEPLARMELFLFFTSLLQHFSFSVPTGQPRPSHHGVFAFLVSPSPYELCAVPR
# Sequence of UniProt P15423 (whole entry, looked up): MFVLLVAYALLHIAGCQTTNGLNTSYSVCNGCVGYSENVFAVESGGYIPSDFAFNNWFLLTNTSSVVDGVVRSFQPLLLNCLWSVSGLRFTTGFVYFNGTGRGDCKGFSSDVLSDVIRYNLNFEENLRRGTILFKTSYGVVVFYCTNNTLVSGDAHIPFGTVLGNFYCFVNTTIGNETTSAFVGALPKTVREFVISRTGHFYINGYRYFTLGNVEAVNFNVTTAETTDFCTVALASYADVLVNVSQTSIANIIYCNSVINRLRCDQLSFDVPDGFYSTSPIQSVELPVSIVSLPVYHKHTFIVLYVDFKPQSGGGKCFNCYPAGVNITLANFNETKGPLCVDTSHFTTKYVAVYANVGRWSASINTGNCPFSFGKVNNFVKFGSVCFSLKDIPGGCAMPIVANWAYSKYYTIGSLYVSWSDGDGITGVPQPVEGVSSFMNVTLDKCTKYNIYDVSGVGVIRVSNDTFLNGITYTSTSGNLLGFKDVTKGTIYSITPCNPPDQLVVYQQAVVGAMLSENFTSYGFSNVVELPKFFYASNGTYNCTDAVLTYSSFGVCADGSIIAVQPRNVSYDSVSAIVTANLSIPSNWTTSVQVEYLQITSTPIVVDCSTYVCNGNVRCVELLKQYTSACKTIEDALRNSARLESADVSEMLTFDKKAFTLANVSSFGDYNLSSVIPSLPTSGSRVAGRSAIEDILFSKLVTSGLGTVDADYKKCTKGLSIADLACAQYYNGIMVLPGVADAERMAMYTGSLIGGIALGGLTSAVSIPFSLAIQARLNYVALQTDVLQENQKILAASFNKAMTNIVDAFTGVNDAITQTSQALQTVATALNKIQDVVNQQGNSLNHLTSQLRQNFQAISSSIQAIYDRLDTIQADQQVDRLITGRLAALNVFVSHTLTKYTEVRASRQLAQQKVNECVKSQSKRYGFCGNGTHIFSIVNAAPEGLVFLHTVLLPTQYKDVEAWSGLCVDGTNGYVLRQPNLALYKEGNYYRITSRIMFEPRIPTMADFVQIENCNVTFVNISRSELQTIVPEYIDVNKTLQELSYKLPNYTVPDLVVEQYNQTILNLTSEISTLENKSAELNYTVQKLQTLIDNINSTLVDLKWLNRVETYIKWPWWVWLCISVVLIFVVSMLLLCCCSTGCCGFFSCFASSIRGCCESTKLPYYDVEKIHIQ
# Sequence of UniProt P04756 (whole entry, looked up): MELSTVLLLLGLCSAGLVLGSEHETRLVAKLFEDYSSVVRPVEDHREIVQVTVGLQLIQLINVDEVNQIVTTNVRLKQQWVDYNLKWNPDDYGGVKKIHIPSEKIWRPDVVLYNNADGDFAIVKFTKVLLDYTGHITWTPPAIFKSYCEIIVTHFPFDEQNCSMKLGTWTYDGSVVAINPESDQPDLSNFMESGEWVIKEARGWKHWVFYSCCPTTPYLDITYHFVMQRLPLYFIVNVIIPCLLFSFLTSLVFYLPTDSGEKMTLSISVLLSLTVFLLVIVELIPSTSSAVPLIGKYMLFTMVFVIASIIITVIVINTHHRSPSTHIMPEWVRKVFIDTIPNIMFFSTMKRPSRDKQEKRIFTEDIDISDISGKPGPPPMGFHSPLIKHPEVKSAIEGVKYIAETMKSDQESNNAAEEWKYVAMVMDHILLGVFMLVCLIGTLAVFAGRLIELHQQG
Structure (SMILES),target,test,system,setting,IC50 [nM]
C=CS(=O)(=O)c1ccc(C#N)c(C(F)(F)F)c1,Polyprotein P1234 nsP2 protease domain,"protease activity, inhibitor, FRET",,"90 min, 30 min preincubation",12000 ± 2000
CC[C@H](C)[C@H](NC(=O)[C@H](C)NC(=O)[C@H](CC(=O)O)NC(=O)[C@H](CC(N)=O)NC(=O)[C@H](CCC(=O)O)NC(=O)[C@@H](N)CC(C)C)C(=O)N[C@@H](CCCNC(=N)N)C(=O)N[C@H](C(=O)N[C@@H](Cc1ccc(O)cc1)C(=O)O)[C@@H](C)CC,"HLA class I histocompatibility antigen, B alpha chain allele B*44:03",biochemical,,,20
CCCCCC(=O)N[C@H]1[C@H]([C@H](O)[C@H](O)CO)OC(C(=O)O)=C[C@@H]1O,nanI,"enzyme activity, inhibitor",,,> 500000
CCC(C(=O)Nc1ccccc1C)n1cccc2nc(S(=O)(=O)Cc3ccc(F)cc3)nc1-2 (stereo not shown),"Replicase polyprotein 1ab, papain-like protease (rep, Middle East respiratory syndrome-related coronavirus, UniProt K9N7C7)","enzyme activity, inhibitor",,,> 100000
CC(C)[C@H](NC(=O)[C@@H]1CCCN1C(=O)[C@H](CCC(=O)O)NC(=O)[C@H](CCCCN)NC(=O)[C@H](CO)NC(=O)[C@H](CC(=O)O)NC(=O)CNC(=O)[C@@H](N)Cc1ccccc1)C(=O)N1CCC[C@H]1C(=O)N[C@@H](Cc1ccc(O)cc1)C(=O)O,"HLA class I histocompatibility antigen, A alpha chain, allele A*29:02 (Homo sapiens, UniProt P04439)",biochemical,,,564
C=CC(=O)Nc1cccc(C(C)(C)C(=O)O)c1,Polyprotein P1234 nsP2 protease domain,"protease activity, inhibitor, FRET",,"90 min, 30 min preincubation",> 200000
CCC(C(=O)Nc1cnn(C)c1)n1cccc2nc(SCc3ccc(F)cc3)nc1-2 (stereo not shown),"Replicase polyprotein 1ab, papain-like protease (rep, Severe acute respiratory syndrome-related coronavirus, UniProt P0C6X7)",enzyme activity,,,> 20000
CC(C)[C@H](NC(=O)[C@@H]1CCCN1C(=O)[C@H](CCC(=O)O)NC(=O)[C@H](CCC(=O)O)NC(=O)[C@H](CO)NC(=O)[C@H](CC(=O)O)NC(=O)CNC(=O)[C@@H](N)Cc1ccccc1)C(=O)N[C@H](C(=O)N[C@@H](Cc1ccc(O)cc1)C(=O)O)[C@@H](C)O,"HLA class I histocompatibility antigen, A alpha chain allele A*01:01",biochemical,,,880
O=C(N1CCC2(CC1)C[C@H](CN1CCCCS1(=O)=O)CCO2)C1(c2cc(F)cc(F)c2)CCCC1,"Polyprotein P1234, nsP2 (Chikungunya virus, UniProt Q8JUX6)","nsP2 RNA unwinding, inhibitor, FRET strand separation",,,850
CC[C@H](C)[C@H](NC(=O)[C@H](CC(=O)O)NC(=O)[C@H](CO)NC(=O)[C@H](CC(=O)O)NC(=O)[C@H](CCCCN)NC(=O)[C@H](CCC(N)=O)NC(=O)[C@H](Cc1ccc(O)cc1)NC(=O)[C@H](CCC(=O)O)NC(=O)[C@H](CC(C)C)NC(=O)[C@@H](NC(=O)[C@H](CCC(=O)O)NC(=O)[C@H](CCSC)NC(=O)[C@@H](NC(=O)[C@H](CC(C)C)NC(=O)[C@H](CO)NC(=O)[C@H](CCC(=O)O)NC(=O)[C@H](CC(C)C)NC(=O)[C@H](CC(C)C)NC(=O)[C@H](CCCCN)NC(=O)[C@H](Cc1ccccc1)NC(=O)[C@H](CCC(=O)O)NC(=O)[C@H](CCC(=O)O)NC(=O)[C@H](Cc1ccc(O)cc1)NC(=O)[C@H](CC(C)C)NC(=O)[C@H](CC(C)C)NC(=O)[C@@H](NC(=O)[C@H](CCCCN)NC(=O)[C@@H](N)CC(C)C)C(C)C)[C@@H](C)CC)[C@@H](C)CC)C(=O)N[C@@H](CCCCN)C(=O)N[C@@H](CCC(=O)O)C(=O)N[C@@H](CC(N)=O)C(=O)N[C@@H](C)C(=O)N[C@@H](CCC(=O)O)C(=O)N[C@@H](CC(=O)O)C(=O)N[C@H](C(=O)N[C@@H](CCCCN)C(=O)O)[C@@H](C)O,"Spike glycoprotein (S, Human coronavirus 229E, UniProt P15423)",cell-based,,,> 5000
CC[C@H](C)[C@H](NC(=O)[C@@H](NC(=O)[C@@H](N)CCCNC(=N)N)[C@@H](C)O)C(=O)N[C@@H](CCCCN)C(=O)N[C@H](C(=O)N[C@@H](Cc1ccccc1)C(=O)N[C@H](C(=O)N[C@H](C(=O)N[C@H](C(=O)O)C(C)C)[C@@H](C)O)[C@@H](C)O)C(C)C,"HLA class I histocompatibility antigen, A alpha chain (Homo sapiens, UniProt P04439)","binding, competitor",,,12200
CCC(C(=O)Nc1cc(NC2CCNC2)ccc1C)n1cc(F)cc2nc(SCc3ccc(F)cc3)nc1-2 (stereo not shown),"Replicase polyprotein 1ab, papain-like protease (rep, Severe acute respiratory syndrome-related coronavirus, UniProt P0C6X7)",enzyme activity,,,223 ± 84
C=C(C)[C@@H]1CCC(C)=C[C@H]1c1c(O)cc(CCCCC)cc1O,"Sodium channel protein type 10 subunit alpha (Scn10a, Mus musculus, UniProt Q6QIY3)","ion current, inhibitor, patch clamp",,,~2000
CCC(C(=O)Nc1cc(NC2CNC2)ccc1C)n1cc(Br)cc2nc(SCc3ccc(F)cc3)nc1-2 (stereo not shown),"Replicase polyprotein 1ab, papain-like protease (rep, Middle East respiratory syndrome-related coronavirus, UniProt K9N7C7)","enzyme activity, inhibitor",,,> 100000
O=C(CCl)Nc1cc(C2CC2)nn1-c1ccccc1,Polyprotein P1234 nsP2 protease domain,"protease activity, inhibitor, FRET",,"90 min, 30 min preincubation",41000 ± 17000
CCCCCCCC/C=C\CCCCCCCCNC(=O)CP(=O)(O)O,"Glycerol-3-phosphate acyltransferase 3 (plsY3, Bacillus anthracis, UniProt Q81Y92)",inhibitor,,,80000
Cn1cnc(Cn2c(=O)[nH]/c(=N\c3cc4cn(C)nc4cc3Cl)n(Cc3cc(F)c(F)cc3F)c2=O)n1,"Cytochrome P450 2D6 (CYP2D6, Homo sapiens, UniProt P10635)",inhibitor,human liver microsomes,"30 min preincubation, preincubation with NADPH, added: dextromethorphan 10 µM",> 100000
Cc1ccc(NC(=O)c2c(Nc3ccccc3)[nH]c(=O)n(O)c2=O)cc1,"Resolvase OPG149 (OPG149, Vaccinia virus, UniProt Q80HV3)",,,,706
Nc1nc(Nc2ccccc2)nc(NCc2ccco2)c1[N+](=O)[O-],rep nsp13 helicase,"helicase ATPase activity, inhibitor, Kinase-Glo luminescence",,,> 90000
Cc1ccccc1NC(=O)C(C)n1c(SCc2ccc(F)cc2)nc2cccnc21 (stereo not shown),"Replicase polyprotein 1ab, papain-like protease (rep, Middle East respiratory syndrome-related coronavirus, UniProt K9N7C7)","enzyme activity, inhibitor",,,> 100000
CCc1c(C(=O)C(N)=O)c2c(OCC(=O)O)cccc2n1Cc1ccccc1,Daboia russelii venom PLA2,"enzyme activity, inhibitor",,"venom from MP, added: NOB substrate",1680
C=CS(=O)(=O)c1nc(C)cs1,Polyprotein P1234 nsP2 protease domain,"protease activity, inhibitor, FRET",,"90 min, 30 min preincubation",22000 ± 4000
COc1cc2c3cc1Oc1cc(ccc1O)C[C@@H]1c4c(cc(OC)c(O)c4Oc4ccc(cc4)C[C@@H]3N(C)CC2)CC[N+]1(C)C,"Chrnd/Chrna1/Chrne (Mus musculus, UniProt P02716+P04756+P20782)","endplate current peak height, inhibitor, two-electrode voltage clamp",mouse hemidiaphragm,"holding potential -80 mV, after paraoxon",339
CC[C@H](C)[C@H](NC(=O)[C@H](CCC(=O)O)NC(=O)[C@@H](N)CCC(=O)O)C(=O)N1CCC[C@H]1C(=O)N[C@@H](CC(=O)O)C(=O)N[C@@H](Cc1ccccc1)C(=O)N[C@@H](C)C(=O)N[C@@H](Cc1ccccc1)C(=O)N[C@@H](Cc1ccc(O)cc1)C(=O)O,"HLA class I histocompatibility antigen, B alpha chain allele B*44:03",biochemical,,,0.25
C=CS(=O)(=O)CCC(=O)Nc1ccc(-c2nncs2)cc1,Polyprotein P1234 nsP2 protease domain,"enzyme activity, inhibitor, FRET",,"90 min, 30 min preincubation",3400 ± 200
C[C@@H](O)[C@H](NC(=O)[C@H](CC(N)=O)NC(=O)[C@H](CC(N)=O)NC(=O)[C@@H](N)Cc1ccccc1)C(=O)N[C@@H](CCCCN)C(=O)N[C@@H](Cc1ccccc1)C(=O)N[C@@H](CC(=O)O)C(=O)N[C@@H](Cc1ccc(O)cc1)C(=O)N[C@@H](Cc1ccc(O)cc1)C(=O)O,"HLA class I histocompatibility antigen, A alpha chain allele A*01:01",biochemical,,,> 10000
Cc1cc(NC(=O)Cc2cccs2)no1,rep nsp13 helicase,"helicase ATPase activity, inhibitor, Kinase-Glo luminescence",,,29000
Cc1cn([C@H]2[C@H]([C@H](O)[C@H](O)CO)OC(C(=O)O)=C[C@@H]2O)nn1,nanI,"enzyme activity, inhibitor",,,70000
CC[C@H](C)[C@H](NC(=O)[C@@H](NC(=O)[C@H](CCCNC(=N)N)NC(=O)[C@H](CCSC)NC(=O)[C@H](CC(N)=O)NC(=O)[C@H](Cc1ccc(O)cc1)NC(=O)[C@@H]1CCCN1C(=O)[C@@H](N)C(C)C)C(C)C)C(=O)O,"HLA class I histocompatibility antigen, B alpha chain","binding, competitor",,,26700
C=CC(=O)N1CCC(CC(=O)O)C(F)(F)CC1 (stereo not shown),Polyprotein P1234 nsP2 protease domain,"protease activity, inhibitor, FRET",,"90 min, 30 min preincubation",> 200000
CCC(CC)O[C@@H]1C=C(C(=O)O)C[C@H](N)[C@H]1NC(C)=O,"Neuraminidase (Influenza A virus, UniProt G9HX50)","enzyme activity, inhibitor","swine influenza A virus, H3N2",,0.15 ± 0.01
CN(C(=O)CC(C)(C)C)[C@H]1[C@H]([C@H](O)[C@H](O)CO)OC(C(=O)O)=C[C@@H]1O,nanI,"enzyme activity, inhibitor",,,> 500000
CC(C)C[C@H](NC(=O)[C@H](Cc1ccccc1)NC(=O)[C@H](CO)NC(=O)[C@H](CC(N)=O)NC(=O)[C@H](CCCCN)NC(=O)[C@H](Cc1ccccc1)NC(=O)[C@@H](NC(=O)[C@H](C)N)C(C)C)C(=O)NCC(=O)N[C@@H](CCCCN)C(=O)O,"HLA class I histocompatibility antigen, A alpha chain, allele A*11:01 (Homo sapiens, UniProt P04439)",biochemical,,,1.5
CCC(CC)O[C@@H]1C=C(C(=O)O)C[C@H](N)[C@H]1NC(C)=O,"neuraminidase (Influenza A virus, UniProt G1FHY4)",,,,1.88
CCC(C(=O)Nc1cc(NC2CCNC2)ccc1C)n1cccc2nc(SCc3ccc(F)cc3)nc1-2 (stereo not shown),"Replicase polyprotein 1ab, papain-like protease (rep, Severe acute respiratory syndrome-related coronavirus, UniProt P0C6X7)",enzyme activity,,,144 ± 37
CCC(CC)[C@H](NC(C)=O)[C@@H]1[C@H](O)[C@@H](C(=O)O)C[C@H]1N=C(N)N,"Neuraminidase (Influenza A virus, UniProt Q3M0T6)",,human reference strains,mean,0.13 ± 0.01
CCCC(C(=O)Nc1cc(NC2CCNC2)ccc1C)n1cccc2nc(SCc3ccc(F)cc3)nc1-2 (stereo not shown),"Replicase polyprotein 1ab, papain-like protease (rep, Middle East respiratory syndrome-related coronavirus, UniProt K9N7C7)","enzyme activity, inhibitor",,,> 100000
CC[C@H](C)[C@H](NC(=O)[C@H](C)NC(=O)[C@H](Cc1ccccc1)NC(=O)[C@H](CCCNC(=N)N)NC(=O)[C@@H](NC(=O)[C@H](C)NC(=O)[C@@H]1CCCN1C(=O)[C@H](CCCCN)NC(=O)[C@@H]1CCCN1C(=O)[C@@H](N)CCCCN)C(C)C)C(=O)O,"HLA class I histocompatibility antigen, B alpha chain",biochemical,,,0.18
CCC(C(=O)Nc1cc(NC2COC2)ccc1C)n1cc(F)cc2nc(SCc3ccc(F)cc3)nc1-2 (stereo not shown),"Replicase polyprotein 1ab, papain-like protease (rep, Severe acute respiratory syndrome-related coronavirus, UniProt P0C6X7)",enzyme activity,,,416 ± 82
O=C(CO)N[C@H]1[C@H]([C@H](O)[C@H](O)CO)O[C@](O)(C(=O)O)C[C@@H]1O,"Spike glycoprotein, with ACE2 (Severe acute respiratory syndrome coronavirus 2, UniProt P0DTC2)","binding to human ACE2, inhibitor",SARS-CoV-2,,1.7

# Some of these lines once more:
Structure (SMILES),target,test,system,setting,IC50 [nM]
O=C(CCl)Nc1cc(C2CC2)nn1-c1ccccc1,Polyprotein P1234 nsP2 protease domain,"protease activity, inhibitor, FRET",,"90 min, 30 min preincubation",41000 ± 17000
CN(C(=O)CC(C)(C)C)[C@H]1[C@H]([C@H](O)[C@H](O)CO)OC(C(=O)O)=C[C@@H]1O,nanI,"enzyme activity, inhibitor",,,> 500000
CCC(C(=O)Nc1cc(NC2CNC2)ccc1C)n1cc(Br)cc2nc(SCc3ccc(F)cc3)nc1-2 (stereo not shown),"Replicase polyprotein 1ab, papain-like protease (rep, Middle East respiratory syndrome-related coronavirus, UniProt K9N7C7)","enzyme activity, inhibitor",,,> 100000
Cc1ccc(NC(=O)c2c(Nc3ccccc3)[nH]c(=O)n(O)c2=O)cc1,"Resolvase OPG149 (OPG149, Vaccinia virus, UniProt Q80HV3)",,,,706
C=CS(=O)(=O)CCC(=O)Nc1ccc(-c2nncs2)cc1,Polyprotein P1234 nsP2 protease domain,"enzyme activity, inhibitor, FRET",,"90 min, 30 min preincubation",3400 ± 200
CC[C@H](C)[C@H](NC(=O)[C@H](C)NC(=O)[C@H](CC(=O)O)NC(=O)[C@H](CC(N)=O)NC(=O)[C@H](CCC(=O)O)NC(=O)[C@@H](N)CC(C)C)C(=O)N[C@@H](CCCNC(=N)N)C(=O)N[C@H](C(=O)N[C@@H](Cc1ccc(O)cc1)C(=O)O)[C@@H](C)CC,"HLA class I histocompatibility antigen, B alpha chain allele B*44:03",biochemical,,,20
CCC(CC)[C@H](NC(C)=O)[C@@H]1[C@H](O)[C@@H](C(=O)O)C[C@H]1N=C(N)N,"Neuraminidase (Influenza A virus, UniProt Q3M0T6)",,human reference strains,mean,0.13 ± 0.01
